Measured values from different studies.
Each numbered part is a random draw from the data of one study; scales do not carry over between parts. Several values in a cell are separate wells, animals, samples, runs or records.
Chain of UniProt Q9NRP7 (whole entry, looked up): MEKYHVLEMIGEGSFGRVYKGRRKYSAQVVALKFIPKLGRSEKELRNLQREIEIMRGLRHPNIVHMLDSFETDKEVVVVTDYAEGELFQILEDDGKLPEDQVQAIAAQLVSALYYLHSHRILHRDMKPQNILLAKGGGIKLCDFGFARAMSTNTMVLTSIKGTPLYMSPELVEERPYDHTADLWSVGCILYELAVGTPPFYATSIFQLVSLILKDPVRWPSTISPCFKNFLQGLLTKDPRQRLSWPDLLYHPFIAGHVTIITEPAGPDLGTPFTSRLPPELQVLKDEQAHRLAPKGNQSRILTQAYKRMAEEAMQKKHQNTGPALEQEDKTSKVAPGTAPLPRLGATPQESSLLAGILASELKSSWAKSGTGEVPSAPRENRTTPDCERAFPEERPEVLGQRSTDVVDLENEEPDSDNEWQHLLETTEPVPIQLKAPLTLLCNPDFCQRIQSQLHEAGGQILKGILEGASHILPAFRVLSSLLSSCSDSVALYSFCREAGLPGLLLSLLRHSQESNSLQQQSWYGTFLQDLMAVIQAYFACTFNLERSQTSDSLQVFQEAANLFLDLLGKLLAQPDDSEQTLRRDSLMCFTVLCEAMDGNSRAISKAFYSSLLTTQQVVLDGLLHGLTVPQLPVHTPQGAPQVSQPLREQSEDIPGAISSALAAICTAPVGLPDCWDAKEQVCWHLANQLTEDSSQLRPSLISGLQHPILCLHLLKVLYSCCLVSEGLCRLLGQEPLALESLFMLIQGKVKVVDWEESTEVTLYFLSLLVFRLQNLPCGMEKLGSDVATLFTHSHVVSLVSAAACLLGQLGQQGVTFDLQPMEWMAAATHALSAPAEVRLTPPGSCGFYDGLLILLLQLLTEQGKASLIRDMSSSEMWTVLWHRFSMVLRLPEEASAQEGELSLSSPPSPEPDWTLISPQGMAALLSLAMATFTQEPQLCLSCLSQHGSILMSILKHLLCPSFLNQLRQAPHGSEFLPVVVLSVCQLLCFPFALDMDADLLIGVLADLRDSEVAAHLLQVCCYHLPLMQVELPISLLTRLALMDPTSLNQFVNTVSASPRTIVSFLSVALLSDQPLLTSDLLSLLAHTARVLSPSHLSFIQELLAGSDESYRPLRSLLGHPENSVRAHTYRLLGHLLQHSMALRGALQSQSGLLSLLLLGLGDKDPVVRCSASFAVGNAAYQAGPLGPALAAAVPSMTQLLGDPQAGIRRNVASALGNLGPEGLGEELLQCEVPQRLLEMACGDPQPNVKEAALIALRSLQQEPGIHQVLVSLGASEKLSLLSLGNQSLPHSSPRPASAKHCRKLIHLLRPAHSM
Chain of UniProt Q09013 (whole entry, looked up): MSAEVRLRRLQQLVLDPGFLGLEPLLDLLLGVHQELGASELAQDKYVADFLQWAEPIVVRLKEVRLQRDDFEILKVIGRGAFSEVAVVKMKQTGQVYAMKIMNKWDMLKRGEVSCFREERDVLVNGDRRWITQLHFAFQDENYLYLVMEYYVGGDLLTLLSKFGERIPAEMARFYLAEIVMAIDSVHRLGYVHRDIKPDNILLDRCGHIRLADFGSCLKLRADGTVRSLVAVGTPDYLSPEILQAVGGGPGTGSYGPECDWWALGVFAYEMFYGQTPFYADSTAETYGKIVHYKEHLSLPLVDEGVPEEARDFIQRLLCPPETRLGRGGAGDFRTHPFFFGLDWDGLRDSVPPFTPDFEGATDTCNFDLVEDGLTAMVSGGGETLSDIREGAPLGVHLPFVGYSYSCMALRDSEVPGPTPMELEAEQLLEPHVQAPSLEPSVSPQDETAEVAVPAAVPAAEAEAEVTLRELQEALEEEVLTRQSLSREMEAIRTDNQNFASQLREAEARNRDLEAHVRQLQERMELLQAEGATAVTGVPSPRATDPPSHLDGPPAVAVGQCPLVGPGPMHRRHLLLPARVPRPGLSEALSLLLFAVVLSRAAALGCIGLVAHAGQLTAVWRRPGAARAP
Chain of UniProt P53671 (whole entry, looked up): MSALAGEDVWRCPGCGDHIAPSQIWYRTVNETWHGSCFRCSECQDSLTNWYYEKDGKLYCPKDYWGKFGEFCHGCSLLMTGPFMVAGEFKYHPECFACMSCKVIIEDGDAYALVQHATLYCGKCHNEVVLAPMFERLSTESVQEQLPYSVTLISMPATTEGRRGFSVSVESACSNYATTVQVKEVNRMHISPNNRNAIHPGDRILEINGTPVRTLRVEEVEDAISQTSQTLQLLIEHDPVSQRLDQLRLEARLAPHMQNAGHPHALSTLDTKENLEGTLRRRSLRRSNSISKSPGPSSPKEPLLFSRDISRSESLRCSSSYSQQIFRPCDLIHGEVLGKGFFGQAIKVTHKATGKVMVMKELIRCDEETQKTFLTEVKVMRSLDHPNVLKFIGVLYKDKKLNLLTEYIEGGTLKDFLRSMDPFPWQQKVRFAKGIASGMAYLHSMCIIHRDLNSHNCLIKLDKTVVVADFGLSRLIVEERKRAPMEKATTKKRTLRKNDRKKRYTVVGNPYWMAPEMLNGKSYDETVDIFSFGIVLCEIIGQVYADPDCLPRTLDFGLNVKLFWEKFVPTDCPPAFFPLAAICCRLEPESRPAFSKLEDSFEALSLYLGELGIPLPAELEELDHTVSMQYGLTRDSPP
Chain of UniProt Q9UK32 (whole entry, looked up): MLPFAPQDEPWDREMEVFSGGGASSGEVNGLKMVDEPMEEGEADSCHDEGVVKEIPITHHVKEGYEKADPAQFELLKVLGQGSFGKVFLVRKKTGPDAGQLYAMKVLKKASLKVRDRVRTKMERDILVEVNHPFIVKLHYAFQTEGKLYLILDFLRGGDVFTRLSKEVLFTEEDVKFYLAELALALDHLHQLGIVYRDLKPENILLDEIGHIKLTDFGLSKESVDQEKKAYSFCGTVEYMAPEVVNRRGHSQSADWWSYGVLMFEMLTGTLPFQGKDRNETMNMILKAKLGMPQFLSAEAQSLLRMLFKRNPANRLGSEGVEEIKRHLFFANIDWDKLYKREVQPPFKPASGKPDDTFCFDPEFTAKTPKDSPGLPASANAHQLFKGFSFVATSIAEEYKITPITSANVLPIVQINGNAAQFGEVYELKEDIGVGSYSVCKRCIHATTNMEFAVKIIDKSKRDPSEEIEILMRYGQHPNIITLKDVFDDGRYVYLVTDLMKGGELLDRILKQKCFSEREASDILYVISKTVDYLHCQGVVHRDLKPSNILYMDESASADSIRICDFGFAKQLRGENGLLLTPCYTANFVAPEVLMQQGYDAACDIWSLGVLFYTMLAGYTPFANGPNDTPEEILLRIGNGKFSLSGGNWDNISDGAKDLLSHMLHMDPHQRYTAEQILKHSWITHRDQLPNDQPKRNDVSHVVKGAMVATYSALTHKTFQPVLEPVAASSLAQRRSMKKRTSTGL
Chain of UniProt Q96L34 (whole entry, looked up): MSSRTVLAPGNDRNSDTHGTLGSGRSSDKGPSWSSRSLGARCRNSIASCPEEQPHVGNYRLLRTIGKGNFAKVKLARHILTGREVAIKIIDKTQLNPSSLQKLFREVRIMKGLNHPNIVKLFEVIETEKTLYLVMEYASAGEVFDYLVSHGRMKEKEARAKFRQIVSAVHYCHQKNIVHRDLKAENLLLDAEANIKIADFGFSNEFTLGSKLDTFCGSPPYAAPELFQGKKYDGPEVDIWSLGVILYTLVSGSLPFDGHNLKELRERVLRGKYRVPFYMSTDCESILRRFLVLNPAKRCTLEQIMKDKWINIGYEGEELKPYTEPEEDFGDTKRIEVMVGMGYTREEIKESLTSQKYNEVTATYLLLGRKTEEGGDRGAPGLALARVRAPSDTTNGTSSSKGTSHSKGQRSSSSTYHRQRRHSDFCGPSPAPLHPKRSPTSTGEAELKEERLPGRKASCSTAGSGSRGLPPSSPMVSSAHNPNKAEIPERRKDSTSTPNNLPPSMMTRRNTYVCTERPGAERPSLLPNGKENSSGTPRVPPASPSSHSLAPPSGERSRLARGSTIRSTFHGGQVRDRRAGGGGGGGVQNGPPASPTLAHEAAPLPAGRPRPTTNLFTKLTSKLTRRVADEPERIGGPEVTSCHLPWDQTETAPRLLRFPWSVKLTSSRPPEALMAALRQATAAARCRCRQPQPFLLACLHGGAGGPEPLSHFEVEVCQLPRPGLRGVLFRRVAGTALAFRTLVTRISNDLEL

Series 1 — cell line: mouse MPNST tumor cells; technique: high-content nuclear imaging; item: cell number; tested at: 10 µM; time: 12 h; setting: mean of 2 replicates; relative to: plate mean; reading: higher = more cells; endpoint: nuclei count
COc1ccc2cccc(N3CCN(CCNC(=O)c4ccc(F)cc4)CC3)c2c1: -0.283 z-score
Cc1c(O)c(=O)n(-c2ccccc2)n1C: 0.785 z-score
C[C@H](CCC(=O)O)[C@H]1CC[C@H]2[C@@H]3C(=O)C[C@@H]4CC(=O)CC[C@]4(C)[C@H]3CC(=O)[C@]12C: 1.14 z-score
Cc1cc(NCCO)nc(-c2ccc(Br)cc2)n1: 1.15 z-score
Cc1cc(-c2nc(C(=O)Nc3cn(C4CCOCC4)nc3C(N)=O)co2)ccn1: 5.81 z-score
Nc1c(Br)cc(Br)cc1CN[C@H]1CC[C@H](O)CC1: 3.71 z-score and -0.0632 z-score

Series 2 — endpoint: inhibition
Structure (SMILES): COc1cc(C(=O)N2CCC(N3CCN(C)CC3)CC2)ccc1Nc1ncc2c(n1)N(C)c1ccccc1C(=O)N2C
FYN (mouse); probe labelling, KiNativ ADP probe; mouse brain lysate; 0.1 µM, LYS1 labelled site: -24.7%
SYK human; KiNativ profiling; human PBMC; 0.1 µM, DFG motif site, together with: ATP acyl phosphate probe: 3.2%
MAP2K1 and MAP2K2 (mouse); probe labelling, KiNativ, item: DVkPSNILVNSR peptide, LYS2 site; brain tissue lysate (mouse); 1 µM, together with: ATP acyl-phosphate probe: -4.1%
PKD2 human; KiNativ profiling; human PBMC; 1 µM, LYS1 site, together with: ADP acyl phosphate probe: 5.2%
PKD1 mouse; KiNativ profiling; mouse brain lysate; 1 µM, LYS1 site, together with: ADP acyl phosphate probe: 7.9%
MLKL (mouse); probe labelling, KiNativ ADP probe; mouse brain lysate; 0.1 µM, LYS1 labelled site: -2.6%

Series 3 — organism: Sarcocystis neurona; effect on: parasite growth; tested at: 10 µM; time: 96 h; setting: first screen; endpoint: inhibition
CC[C@H](C)C(=O)O[C@H]1CCC=C2C=C[C@H](C)[C@H](CC[C@@H]3C[C@@H](O)CC(=O)O3)[C@H]21: 20.4%
NS(=O)(=O)Cc1noc2ccccc12: -10.7%
Cc1occc(=O)c1O: -10.2%
Cc1cccc(C)c1NC(=O)C1CCCCN1C (centres unmarked): -4.2%

Series 4 — effect on: cell-free assay; technique: competition with immobilised ligand; tested at: 1 µM; endpoint: remaining binding
SMILES: CN(C(=O)c1ccccc1)c1cc(N(C)c2ccc3c(c2)CCc2ccc(C(=O)NCCN4CCOCC4)cc2C3=O)ccc1F
MAP2K4 (Homo sapiens, UniProt P45985): 100%
MYLK4 (Homo sapiens, UniProt Q86YV6): 95%
FGFR1 (Homo sapiens, UniProt P11362): 84%
MARK4 (Homo sapiens, UniProt Q96L34): 88%
EGFR (Homo sapiens, UniProt P00533, L858R): 100%
SBK1 (Homo sapiens, UniProt Q52WX2): 93%
DYRK1B (Homo sapiens, UniProt Q9Y463): 100%
DMPK (Homo sapiens, UniProt Q09013): 69%
MAP3K1 (Homo sapiens, UniProt Q13233): 100%
FLT3 (Homo sapiens, UniProt P36888, D835V/ITD): 85%
FLT3 (Homo sapiens, UniProt P36888, D835H): 100%
PIK3CA (Homo sapiens, UniProt P42336, E542K): 64%
Ribosomal protein S6 kinase alpha-6, C-terminal kinase domain (RPS6KA6, Homo sapiens, UniProt Q9UK32): 100%
GSK3B (Homo sapiens, UniProt P49841): 100%
LIM domain kinase 2 (LIMK2, Homo sapiens, UniProt P53671): 100%
STK36 (Homo sapiens, UniProt Q9NRP7): 93%
Tyrosine-protein kinase ABL1, non-phosphorylated (ABL1, Homo sapiens, UniProt P00519, F317L): 94%

Mixed results
CC(=O)N[C@@H](Cc1c[nH]c2ccccc12)C(=O)N[C@@H](CCC(=O)C=[N+]=[N-])C(=O)OC(C)C — tumour volume (mice, MC-38 tumour rechallenge; 0.26 mg/kg, day 14 after injection): 0 mm3
CC(C)n1cnc(-c2ccc(F)cc2)c1-c1ncc(C(=O)Nc2ccc(N3CCN(C)CC3)cc2)[nH]1 — patients with Eczema (human, idiopathic pulmonary fibrosis; 30 mg once daily, trial, treatment-emergent): 0%

For quick reference, copied from above (series 1):
C[C@H](CCC(=O)O)[C@H]1CC[C@H]2[C@@H]3C(=O)C[C@@H]4CC(=O)CC[C@]4(C)[C@H]3CC(=O)[C@]12C: 1.14 z-score
Nc1c(Br)cc(Br)cc1CN[C@H]1CC[C@H](O)CC1: 3.71 z-score and -0.0632 z-score
Cc1cc(-c2nc(C(=O)Nc3cn(C4CCOCC4)nc3C(N)=O)co2)ccn1: 5.81 z-score
COc1ccc2cccc(N3CCN(CCNC(=O)c4ccc(F)cc4)CC3)c2c1: -0.283 z-score
Cc1cc(NCCO)nc(-c2ccc(Br)cc2)n1: 1.15 z-score
Cc1c(O)c(=O)n(-c2ccccc2)n1C: 0.785 z-score
